Assay results pooled from the literature.
Each line is one published result; not all experiments were run side by side. ± gives the spread as reported.

SMILES	tested on	assay	test system	setting	how to read	quantity	value
Cc1ncsc1-c1ccc(C(C)NC(=O)C2CC(O)CN2C(=O)C(NC(=O)CCCCCCCCCCN2CCCC(Nc3ncc(Cl)c(Nc4ccccc4S(=O)(=O)C(C)C)n3)C2)C(C)(C)C)cc1 (stereo not shown)	22Rv1	RNA-seq, refers to: ZNF799 mRNA		concentration not given	baseline: DMSO	log2 fold change	-1.45
CNS(=O)(=O)Nc1nccc(Cc2c(C)c3ccc(Oc4ncccc4F)cc3oc2=O)c1F	UWB1289	cell viability		7 days		IC50	> 1000 nM
O=C(N/N=C/c1ccc(C[n+]2ccccc2)cc1)c1ccc2ccc(C(=O)N/N=C/c3ccc(C[n+]4ccccc4)cc3)nc2n1	myc22 MYC G4-DNA parallel	FRET melting		1 µM, K1 buffer, DNA 0.2 µM		ΔTm	13.3 ± 1.2 °C
C=CC(=O)Nc1cccc(Cn2ncc3cnc(Nc4cnn(CCOC)c4)nc32)c1	AKT3 human	binding, KINOMEscan		100 nM	lower = stronger binding	percent of control	100%
C[n+]1cc(/C=N/NC(=O)c2ccc3ccc(C(=O)N/N=C/c4cc5ccccc5[n+](C)c4)nc3n2)cc2ccccc21	myc22 MYC G4-DNA parallel	FRET melting		1 µM, K1 buffer, DNA 0.2 µM		ΔTm	17.2 ± 0.3 °C
COC1CN([C@H]2CC[C@H]([C@@]3(C)Oc4c(Cl)cc(C(=O)NCc5c(SC)cc(C)[nH]c5=O)c(C)c4O3)CC2)C1		RNA-seq, refers to: ENAH mouse homolog	mouse, HT-1376 xenograft, whole blood	dose not given	baseline: vehicle	log2 fold change	0.758
CN1CCCNC(=O)c2cccc(c2)C(=O)NCCCN(C)CCCNc2cccc3c2C(=O)c2cccc(c2C3=O)NCCC1	SAS	RNA-Seq, refers to: SLC11A2 mRNA		1 µM, 6 h	baseline: untreated cells	log2 fold change	-1.23
C[n+]1ccc(/C=N/NC(=O)N/N=C/c2cc[n+](C)cc2)cc1	myc22 MYC G4-DNA parallel	FRET melting		1 µM, K1 buffer, DNA 0.2 µM		ΔTm	2.4 ± 0.6 °C
Nc1ncc(-c2cc(-c3cnn(CC(F)(F)F)c3)ncc2F)nc1C(=O)NC1CNCC(F)C1 (stereo not shown)	MYLK2	KINOMEscan		1 µM	baseline: DMSO control	remaining binding	91%
COc1cc(O)ccc1CCC(c1ccc(O)cc1)c1cc2c(c(C)c1O)OC(c1ccc(O)cc1)CC2 (mixture of isomers)		refers to: arachidonic acid	human whole blood	30 µM, together with: Escherichia coli		amount	398000 ± 23600 pg/mL blood

Some of these lines once more:
SMILES	tested on	assay	test system	setting	how to read	quantity	value
C[n+]1ccc(/C=N/NC(=O)N/N=C/c2cc[n+](C)cc2)cc1	myc22 MYC G4-DNA parallel	FRET melting		1 µM, K1 buffer, DNA 0.2 µM		ΔTm	2.4 ± 0.6 °C
